Measured values collected from several papers.
Numbered parts are unrelated; each lists some results of a single study.
UniProt Q9H0K1, sequence (whole entry, looked up): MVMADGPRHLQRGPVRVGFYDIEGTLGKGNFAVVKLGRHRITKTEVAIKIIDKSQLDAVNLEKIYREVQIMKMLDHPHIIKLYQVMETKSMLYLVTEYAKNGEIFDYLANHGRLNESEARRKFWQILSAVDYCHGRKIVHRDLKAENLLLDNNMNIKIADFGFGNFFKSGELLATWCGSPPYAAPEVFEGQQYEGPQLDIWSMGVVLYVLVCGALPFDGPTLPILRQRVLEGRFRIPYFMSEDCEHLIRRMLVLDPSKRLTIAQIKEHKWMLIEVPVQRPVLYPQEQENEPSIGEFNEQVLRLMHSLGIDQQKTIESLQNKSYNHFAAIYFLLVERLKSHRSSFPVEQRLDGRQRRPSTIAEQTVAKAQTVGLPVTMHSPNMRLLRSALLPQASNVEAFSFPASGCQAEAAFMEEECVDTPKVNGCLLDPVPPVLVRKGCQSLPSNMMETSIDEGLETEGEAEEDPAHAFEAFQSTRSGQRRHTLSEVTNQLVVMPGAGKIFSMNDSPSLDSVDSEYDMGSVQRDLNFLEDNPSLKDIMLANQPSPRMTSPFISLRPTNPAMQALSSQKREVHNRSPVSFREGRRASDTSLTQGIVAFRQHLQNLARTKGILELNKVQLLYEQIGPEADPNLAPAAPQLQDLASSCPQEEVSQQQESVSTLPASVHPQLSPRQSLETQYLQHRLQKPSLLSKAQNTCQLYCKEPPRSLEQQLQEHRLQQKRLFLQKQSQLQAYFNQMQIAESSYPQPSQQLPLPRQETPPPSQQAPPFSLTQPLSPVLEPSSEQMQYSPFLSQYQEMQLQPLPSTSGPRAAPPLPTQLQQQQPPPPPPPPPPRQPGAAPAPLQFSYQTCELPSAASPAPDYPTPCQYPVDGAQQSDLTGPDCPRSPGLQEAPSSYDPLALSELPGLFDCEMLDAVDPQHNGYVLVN
UniProt Q9Y6R4, sequence (whole entry, looked up): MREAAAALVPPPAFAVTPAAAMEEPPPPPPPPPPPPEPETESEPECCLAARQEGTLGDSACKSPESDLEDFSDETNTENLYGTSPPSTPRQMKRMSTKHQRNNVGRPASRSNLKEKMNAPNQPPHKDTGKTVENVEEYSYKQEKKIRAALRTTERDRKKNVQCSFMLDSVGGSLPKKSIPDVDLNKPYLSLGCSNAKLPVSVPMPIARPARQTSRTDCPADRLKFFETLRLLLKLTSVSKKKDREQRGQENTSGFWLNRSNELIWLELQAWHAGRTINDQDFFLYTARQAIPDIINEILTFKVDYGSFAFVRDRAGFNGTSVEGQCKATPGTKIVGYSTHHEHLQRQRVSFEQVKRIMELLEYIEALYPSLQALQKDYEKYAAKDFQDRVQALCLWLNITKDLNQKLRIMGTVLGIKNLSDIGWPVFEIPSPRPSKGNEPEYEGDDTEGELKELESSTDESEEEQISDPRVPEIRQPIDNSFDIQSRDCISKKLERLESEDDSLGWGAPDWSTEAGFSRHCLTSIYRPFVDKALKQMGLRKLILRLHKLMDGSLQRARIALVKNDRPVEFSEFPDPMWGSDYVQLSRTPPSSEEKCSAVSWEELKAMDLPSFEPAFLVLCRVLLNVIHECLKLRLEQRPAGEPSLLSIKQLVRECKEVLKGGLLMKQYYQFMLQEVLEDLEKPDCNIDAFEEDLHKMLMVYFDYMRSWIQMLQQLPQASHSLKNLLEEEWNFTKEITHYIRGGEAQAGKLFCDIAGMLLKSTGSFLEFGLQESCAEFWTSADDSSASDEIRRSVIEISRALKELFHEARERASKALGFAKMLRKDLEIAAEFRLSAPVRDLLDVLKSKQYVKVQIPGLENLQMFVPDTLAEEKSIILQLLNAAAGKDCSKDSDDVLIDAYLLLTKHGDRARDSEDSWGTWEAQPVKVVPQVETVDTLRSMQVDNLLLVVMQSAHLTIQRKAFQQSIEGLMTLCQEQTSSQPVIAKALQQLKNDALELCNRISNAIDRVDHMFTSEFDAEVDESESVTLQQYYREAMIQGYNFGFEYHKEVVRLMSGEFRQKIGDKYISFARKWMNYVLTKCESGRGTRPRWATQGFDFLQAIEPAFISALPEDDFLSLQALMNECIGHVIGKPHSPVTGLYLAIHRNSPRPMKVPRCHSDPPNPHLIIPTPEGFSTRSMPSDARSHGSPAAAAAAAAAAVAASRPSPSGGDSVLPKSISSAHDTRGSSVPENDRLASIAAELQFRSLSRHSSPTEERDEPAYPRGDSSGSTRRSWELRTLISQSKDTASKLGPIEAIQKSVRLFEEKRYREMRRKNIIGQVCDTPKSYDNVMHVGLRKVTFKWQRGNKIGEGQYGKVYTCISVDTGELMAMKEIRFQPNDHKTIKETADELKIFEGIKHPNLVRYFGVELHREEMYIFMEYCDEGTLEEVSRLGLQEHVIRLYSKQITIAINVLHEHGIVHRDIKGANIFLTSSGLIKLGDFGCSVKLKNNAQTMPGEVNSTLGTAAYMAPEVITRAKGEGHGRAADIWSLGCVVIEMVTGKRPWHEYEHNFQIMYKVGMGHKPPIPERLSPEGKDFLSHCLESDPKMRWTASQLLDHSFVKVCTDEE
UniProt P11309, sequence (whole entry, looked up): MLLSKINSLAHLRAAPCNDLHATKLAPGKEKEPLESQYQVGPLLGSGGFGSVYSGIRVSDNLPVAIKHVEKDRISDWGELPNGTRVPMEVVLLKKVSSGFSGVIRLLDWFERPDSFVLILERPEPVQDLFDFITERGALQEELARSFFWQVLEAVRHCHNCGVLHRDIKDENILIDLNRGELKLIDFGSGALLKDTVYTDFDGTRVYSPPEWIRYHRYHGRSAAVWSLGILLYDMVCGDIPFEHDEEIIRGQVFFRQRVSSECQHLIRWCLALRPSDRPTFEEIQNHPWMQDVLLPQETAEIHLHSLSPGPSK
UniProt P49760, sequence (whole entry, looked up): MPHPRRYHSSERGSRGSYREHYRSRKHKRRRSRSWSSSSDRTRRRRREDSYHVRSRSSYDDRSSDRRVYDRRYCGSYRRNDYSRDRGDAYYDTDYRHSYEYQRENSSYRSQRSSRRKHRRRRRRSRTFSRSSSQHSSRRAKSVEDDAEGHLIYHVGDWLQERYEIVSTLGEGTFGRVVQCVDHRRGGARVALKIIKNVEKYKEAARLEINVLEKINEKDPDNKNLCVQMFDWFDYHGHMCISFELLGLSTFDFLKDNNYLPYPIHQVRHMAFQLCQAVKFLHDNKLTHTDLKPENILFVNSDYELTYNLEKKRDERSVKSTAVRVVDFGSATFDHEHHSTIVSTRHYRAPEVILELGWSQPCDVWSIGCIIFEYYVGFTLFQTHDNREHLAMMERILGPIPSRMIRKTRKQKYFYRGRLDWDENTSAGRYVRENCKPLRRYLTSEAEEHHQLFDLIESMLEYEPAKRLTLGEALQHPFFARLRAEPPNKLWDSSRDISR
UniProt Q06418, sequence (whole entry, looked up): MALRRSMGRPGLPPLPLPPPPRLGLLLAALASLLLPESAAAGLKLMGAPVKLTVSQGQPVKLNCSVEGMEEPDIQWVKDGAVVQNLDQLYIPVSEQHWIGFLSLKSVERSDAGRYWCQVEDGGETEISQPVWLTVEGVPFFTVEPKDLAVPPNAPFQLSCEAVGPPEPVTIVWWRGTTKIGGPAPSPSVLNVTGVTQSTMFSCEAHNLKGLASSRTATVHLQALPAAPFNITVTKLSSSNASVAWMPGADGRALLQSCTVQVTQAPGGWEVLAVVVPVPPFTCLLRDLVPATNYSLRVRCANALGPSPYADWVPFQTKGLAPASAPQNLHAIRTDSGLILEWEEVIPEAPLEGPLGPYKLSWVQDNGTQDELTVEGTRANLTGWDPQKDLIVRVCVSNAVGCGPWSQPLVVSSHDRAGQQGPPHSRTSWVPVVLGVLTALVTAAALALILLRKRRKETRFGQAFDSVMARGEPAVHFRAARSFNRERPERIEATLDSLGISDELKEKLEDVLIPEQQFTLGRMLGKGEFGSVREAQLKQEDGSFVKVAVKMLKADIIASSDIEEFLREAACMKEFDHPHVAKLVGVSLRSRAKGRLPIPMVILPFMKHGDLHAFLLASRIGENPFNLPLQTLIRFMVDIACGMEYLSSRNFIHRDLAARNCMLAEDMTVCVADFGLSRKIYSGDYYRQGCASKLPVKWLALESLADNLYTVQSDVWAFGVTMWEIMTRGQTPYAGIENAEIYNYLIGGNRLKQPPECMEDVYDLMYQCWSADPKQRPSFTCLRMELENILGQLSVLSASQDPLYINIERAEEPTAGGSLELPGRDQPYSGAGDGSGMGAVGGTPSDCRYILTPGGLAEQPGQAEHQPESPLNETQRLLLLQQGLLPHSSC
UniProt Q9HBH9, sequence (whole entry, looked up): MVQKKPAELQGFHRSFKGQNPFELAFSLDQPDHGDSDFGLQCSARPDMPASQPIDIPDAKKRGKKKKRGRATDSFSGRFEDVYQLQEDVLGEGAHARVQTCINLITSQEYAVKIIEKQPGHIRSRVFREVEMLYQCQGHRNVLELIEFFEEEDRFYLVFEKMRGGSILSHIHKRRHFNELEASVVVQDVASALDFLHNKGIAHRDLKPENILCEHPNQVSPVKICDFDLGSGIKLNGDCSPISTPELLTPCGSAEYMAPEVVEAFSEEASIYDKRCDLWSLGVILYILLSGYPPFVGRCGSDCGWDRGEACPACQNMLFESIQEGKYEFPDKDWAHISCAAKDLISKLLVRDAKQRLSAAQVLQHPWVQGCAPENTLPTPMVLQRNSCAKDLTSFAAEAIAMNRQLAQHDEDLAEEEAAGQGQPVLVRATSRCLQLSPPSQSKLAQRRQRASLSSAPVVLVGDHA

Sample 1
Partner: ARF16 570-670 (Arabidopsis thaliana, UniProt Q93YR9)
Technique: two-hybrid
Baseline: out of 4 tests
Reading: higher = firmer interaction
B1: IAA28 (Arabidopsis thaliana, UniProt Q9XFM0); chain MEEEKRLELRLAPPCHQFTSNNNINGSKQKSSTKETSFLSNNRVEVAPVVGWPPVRSSRRNLTAQLKEEMKKKESDEEKELYVKINMEGVPIGRKVNLSAYNNYQQLSHAVDQLFSKKDSWDLNRQYTLVYEDTEGDKVLVGDVPWEMFVSTVKRLHVLKTSHAFSLSPRKHGKE
B2: IAA17 (Arabidopsis thaliana, UniProt P93830); chain MMGSVELNLRETELCLGLPGGDTVAPVTGNKRGFSETVDLKLNLNNEPANKEGSTTHDVVTFDSKEKSACPKDPAKPPAKAQVVGWPPVRSYRKNVMVSCQKSSGGPEAAAFVKVSMDGAPYLRKIDLRMYKSYDELSNALSNMFSSFTMGKHGGEEGMIDFMNERKLMDLVNSWDYVPSYEDKDGDWMLVGDVPWPMFVDTCKRLRLMKGSDAIGLAPRAMEKCKSRA
B3: ARF5 788-902 (Arabidopsis thaliana, UniProt P93024); chain ATPRVRTYTKVQKTGSVGRSIDVTSFKDYEELKSAIECMFGLEGLLTHPQSSGWKLVYVDYESDVLLVGDDPWEEFVGCVRCIRILSPTEVQQMSEEGMKLLNSAGINDLKTSVS
B4: ARF1 538-665 (Arabidopsis thaliana, UniProt Q8L7G0); chain SRQIRSCTKVHMQGSAVGRAIDLTRSECYEDLFKKLEEMFDIKGELLESTKKWQVVYTDDEDDMMMVGDDPWNEFCGMVRKIFIYTPEEVKKLSPKNKLAVNARMQLKADAEENGNTEGRSSSMAGSR
B5: ARF6 790-935 (Arabidopsis thaliana, UniProt Q9ZTX8); chain SENPQSNTFVKVYKSGSFGRSLDISKFSSYHELRSELARMFGLEGQLEDPVRSGWQLVFVDRENDVLLLGDDPWPEFVSSVWCIKILSPQEVQQMGKRGLELLNSAPSSNNVDKLPSNGNCDDFGNRSDPRNLGNGIASVGGSFNY
Construct (chain): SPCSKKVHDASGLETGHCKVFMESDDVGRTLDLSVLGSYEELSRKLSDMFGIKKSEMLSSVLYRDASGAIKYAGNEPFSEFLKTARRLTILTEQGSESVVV
The positive tests of `B1 (IAA28)` is reported as 0.
With `B2 (IAA17)` the positive tests was 0.
The positive tests of `B3 (ARF5 788-902)` is reported as 0.
The positive tests of `B4 (ARF1 538-665)` is reported as 0.
For `B5 (ARF6 790-935)`, the positive tests was 0.

Sample 2
Target: Transcription factor SOX-2, HMG box (SOX2, Homo sapiens, UniProt P48431, residues 19-118)
UniProt P48431, sequence (19-118, looked up): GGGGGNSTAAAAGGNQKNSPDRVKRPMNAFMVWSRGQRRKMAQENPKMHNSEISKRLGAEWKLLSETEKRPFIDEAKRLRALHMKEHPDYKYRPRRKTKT
Technique: protein-binding microarray
Form: double-stranded DNA, one strand shown
Matrix: in vitro
Tested at: not given
Notes: k-mer, scored over probes, only values ≥0.25
Reading: higher = stronger binding
With `ATATATG` the E-score was 0.257.
For `AAATGAA`, the E-score was 0.308.
With `ATTAAAT` the E-score was 0.331.
With `ATTGTGG` the E-score was 0.353.
`ATTATTC` gave an E-score of 0.405.
For `TATTACA`, the E-score was 0.26.
`GATTCAA` has an E-score of 0.31.
`CAATAGC` gave an E-score of 0.363.

Sample 3
SMILES: COc1cc2ncnc(N3CCN(C(=O)Nc4ccc(Oc5ccccc5)cc4)CC3)c2cc1OC
Effect on: enzyme activity
Action: inhibitor
Tested at: 0.5 µM
Baseline: control
Tyrosine-protein kinase Fes/Fps (FES, Homo sapiens, UniProt P07332) — remaining activity: 98.3%.
For Dual specificity tyrosine-phosphorylation-regulated kinase 1A (DYRK1A, Homo sapiens, UniProt Q13627): remaining activity read 97.9%.
Mitogen-activated protein kinase kinase kinase 20 (MAP3K20, Homo sapiens, UniProt Q9NYL2) — remaining activity: 96.2%.
The remaining activity was 92.1% (Cyclin-dependent kinase 2, with cyclin E (CDK2, Homo sapiens, UniProt P24941)).
For Serine/threonine-protein kinase PAK 6 (PAK6, Homo sapiens, UniProt Q9NQU5): remaining activity read 95.2%.
Serine/threonine-protein kinase SIK2 (SIK2, Homo sapiens, UniProt Q9H0K1) — remaining activity: 96%.
It gave 91.8% for remaining activity (Serine/threonine-protein kinase PAK 1 (PAK1, Homo sapiens, UniProt Q13153)).
For Dual specificity protein kinase CLK2 (CLK2, Homo sapiens, UniProt P49760): remaining activity read 81.3%.
For Muscle, skeletal receptor tyrosine-protein kinase (MUSK, Homo sapiens, UniProt O15146): remaining activity read 87.4%.
It gave 102% for remaining activity (Serine/threonine-protein kinase pim-1 (PIM1, Homo sapiens, UniProt P11309)).
It gave 99.1% for remaining activity (Serine/threonine-protein kinase MARK1 (MARK1, Homo sapiens, UniProt Q9P0L2)).
For Tyrosine-protein kinase receptor TYRO3 (TYRO3, Homo sapiens, UniProt Q06418): remaining activity read 99.6%.
SRSF protein kinase 1 (SRPK1, Homo sapiens, UniProt Q96SB4) — remaining activity: 97.5%.
The remaining activity was 89.6% (Ephrin type-B receptor 3 (EPHB3, Homo sapiens, UniProt P54753)).
For Casein kinase I isoform epsilon (CSNK1E, Homo sapiens, UniProt P49674): remaining activity read 94.6%.
For Insulin-like growth factor 1 receptor (IGF1R, Homo sapiens, UniProt P08069): remaining activity read 103%.
The remaining activity was 101% (Serine/threonine-protein kinase PAK 4 (PAK4, Homo sapiens, UniProt O96013)).
The remaining activity was 94.1% (Serine/threonine-protein kinase BRSK2 (BRSK2, Homo sapiens, UniProt Q8IWQ3)).

Sample 4
SMILES: CNC(=O)Nc1ccc2c(c1)CC[C@@]21OC(=O)N(CC(=O)N(Cc2ccc(F)cc2)[C@@H](C)C(F)(F)F)C1=O
Effect on: cell-free assay
Technique: competition with immobilised ligand
Tested at: 1 µM
The remaining binding was 89% (Mitogen-activated protein kinase kinase kinase 4 (MAP3K4, Homo sapiens, UniProt Q9Y6R4)).
For Tyrosine-protein kinase HCK (HCK, Homo sapiens, UniProt P08631): remaining binding read 99%.
It gave 77% for remaining binding (Mitogen-activated protein kinase kinase kinase 15 (MAP3K15, Homo sapiens, UniProt Q6ZN16)).
It gave 82% for remaining binding (MAP kinase-interacting serine/threonine-protein kinase 2 (MKNK2, Homo sapiens, UniProt Q9HBH9)).

Single results of other studies
For CCOC(=O)[C@@H]1CSCC(=O)N[C@H](CC)C(=O)N(C)[C@@H](C)C(=O)N[C@H](CC(C)C)C(=O)N2CCC[C@H]2C(=O)N(CC(C)C)CC(=O)N[C@@H](CC(C)C)C(=O)N(C)[C@@H](C)C(=O)N[C@@H](CC(C)C)C(=O)N1C, the logD was 0.662 (hydrocarbon/water).

For quick reference, copied from above (sample 2):
For `AAATGAA`, the E-score was 0.308.
With `ATTAAAT` the E-score was 0.331.
With `ATTGTGG` the E-score was 0.353.
`ATTATTC` gave an E-score of 0.405.
